Assay results gathered from unrelated publications.
Protocols differ between the studies behind these lines. ± marks the error that the study gave.
CNR1: Cannabinoid receptor 1 (CNR1, Homo sapiens, UniProt P21554)
UniProt P21554, sequence (whole entry, unmodified, looked up): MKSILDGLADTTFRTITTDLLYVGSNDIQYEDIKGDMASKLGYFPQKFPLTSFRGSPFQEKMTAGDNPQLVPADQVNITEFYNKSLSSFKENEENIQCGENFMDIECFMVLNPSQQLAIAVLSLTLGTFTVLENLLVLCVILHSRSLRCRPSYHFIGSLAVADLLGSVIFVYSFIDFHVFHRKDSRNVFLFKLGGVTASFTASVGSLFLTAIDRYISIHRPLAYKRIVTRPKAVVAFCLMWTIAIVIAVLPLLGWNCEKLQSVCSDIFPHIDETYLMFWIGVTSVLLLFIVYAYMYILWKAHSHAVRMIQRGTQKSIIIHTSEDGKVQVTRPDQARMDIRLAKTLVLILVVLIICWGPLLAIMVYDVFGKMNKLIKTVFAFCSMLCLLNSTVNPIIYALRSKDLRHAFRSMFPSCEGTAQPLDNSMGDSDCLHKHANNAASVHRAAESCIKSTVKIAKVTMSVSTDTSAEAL

For `CCCCCn1cc(C(=O)c2ccc3ccccc3c2)c2ccccc21`, the Emax was 102 ± 4.5% (CNR1 (Homo sapiens, UniProt P21554, L359V); Gαi1 engagement, agonist, BRET; baseline: reference agonist at wild-type CB1).
`CC(=O)OCCCCCn1c2ccccc2c2cc(C(=O)c3cccc4ccccc34)ccc21` gave an Emax of 32.5% (CNR1; cAMP inhibition, agonist, BRET; HEK293 expressing CNR1; added: forskolin; baseline: forskolin alone).
With `CCOC(=O)[C@](CC)(CCCSCCOCCOCCNC(=O)c1ccc(-c2c3ccc(=N)c(S(=O)(=O)O)c-3oc3c(S(=O)(=O)O)c(N)ccc23)c(C(=O)O)c1)NC(=O)c1ccc(C2CC2)c(Cc2ccc(F)cc2)n1` the Emax was 109% (CNR1; cAMP, agonist).
`CCCCCn1cc(C(=O)c2cccc3c2CC(C)(C)C3)c2ccccc21` gave an Emax of 140 ± 2.4% (CNR1 (Homo sapiens, UniProt P21554, I267L/L193I/L359V); Gαi1 engagement, agonist, BRET; baseline: reference agonist at wild-type CB1).
`CCCCCn1c2ccccc2c2cc(C(=O)c3ccncc3)ccc21` has an Emax of 256% (CNR1; GTPγS binding, agonist; cell membranes).
The association constant of `CCCCCn1cc(C(=O)c2ccc(OC)cc2)c2ccccc21` is reported as 3.63e+10 M⁻¹ (CNR1; binding, surface plasmon resonance; 50 µM).
`CC1=C[C@H]2c3c(O)cc(CCc4ccccc4)cc3OC(C)(C)[C@H]2CC1` has an Emax of 142% (CNR1; GTPγS binding, agonist, radiometric; cell membranes).
`CCCCCn1cc(C(=O)c2ccc(CC)c3ccccc23)c2ccccc21` gave an association constant of 1.05e+12 M⁻¹ (CNR1; binding, surface plasmon resonance; 50 µM).
With `O=C(c1ccc2c(c1)c1ccccc1n2CCN1CCOCC1)c1cccc2ccccc12` the Emax was 42.4% (CNR1; cAMP inhibition, agonist, BRET; HEK293 expressing CNR1; added: forskolin; baseline: forskolin alone).
With `CC(=O)N/C(N)=N/C(=N\S(=O)(=O)c1ccc(C(F)(F)F)cc1)N1C[C@H](c2ccccc2)C(c2ccc(Cl)cc2)=N1` the selectivity ratio was over 2000 fold (CNR1; binding, [3H]CP55,940 displacement; CHO-K1 cell membranes; baseline: CB2 over CB1).
`O=C(c1ccc2c(c1)c1ccccc1n2CC1CCOCC1)c1cccc2ccccc12` has an Emax of 216% (CNR1; GTPγS binding, agonist; cell membranes).
`CCCCCn1cc(C(=O)c2ccc3c(c2)CC(C)(C)C3)c2ccccc21` has an Emax of 56.2 ± 4.3% (CNR1 (Homo sapiens, UniProt P21554, L193I); Gαi1 engagement, agonist, BRET; baseline: reference agonist at wild-type CB1).

For quick reference, copied from above:
`CCCCCn1cc(C(=O)c2cccc3c2CC(C)(C)C3)c2ccccc21` gave an Emax of 140 ± 2.4% (CNR1 (Homo sapiens, UniProt P21554, I267L/L193I/L359V); Gαi1 engagement, agonist, BRET; baseline: reference agonist at wild-type CB1).
With `O=C(c1ccc2c(c1)c1ccccc1n2CCN1CCOCC1)c1cccc2ccccc12` the Emax was 42.4% (CNR1; cAMP inhibition, agonist, BRET; HEK293 expressing CNR1; added: forskolin; baseline: forskolin alone).
